# Assay results gathered from unrelated publications.
# “And” joins repeats or separate records; there may be more than shown. ± marks the error that the study gave.
SMILES,assay,test system,setting,how to read,measurement,value
CC(=O)N[C@@H](CC(N)=O)C(=O)NCC(=O)N[C@@H](C)C(=O)N[C@@H](C)C(N)=O,1H NMR,sodium phosphate buffer 50 mM,"pH 7.8, 55 °C",,rate constant succinimide to β-Asp,8.06 h⁻¹
O=C(O)c1ccc(/C=C2\SC(=S)N(Cc3cccc(C(F)(F)F)c3)C2=O)cc1,,"wild-type mouse, high-fat diet, blood","2.5 mg/kg once daily, 6 weeks",,blood insulin level,decreased
CCCCCCCOC(=O)Cc1c(C)n(C(=O)c2ccc(Cl)cc2)c2ccc(OC)cc12,hot plate test,BALB/c mice,"100 mg/kg, 120 min",,latency of nociceptive response,16.7 ± 1.2 s
CC(C)(C)ONc1nc(Nc2ccnc(C(F)(F)F)c2)nc(-c2cccc(C(F)(F)F)n2)n1,item: 2-hydroxyglutarate,mouse U-87 MG IDH2 R140Q xenograft,"oral, 18.05 and 54.14 mg/kg",,duration of tumour 2-HG suppression,≥ 24 h
COc1ccc(OC)c(C(=Cc2ccc(O)c(OC)c2)C(=O)NCCc2ccc(O)cc2)c1,"item: DA, DOPAC, HVA","C57BL mice, MPTP/p Parkinson model, striatum","75 mg/kg, 8 weeks",reference: MPTP/p vehicle,dopamine and metabolite level,increased
CCCCCCCCCn1cc(C(N)(CO)CO)nn1,,APP/PS1 mouse,dose not given,reference: PBS,proinflammatory mRNA levels,decreased
COc1c2c(cc3oc(C)cc(=O)c13)O[C@H](C(C)(C)O[C@@H]1O[C@H](CO)[C@@H](O)[C@H](O)[C@H]1O)C2,analgesic effect,mouse,"oral, 2 mg/kg, 2 h",,hot plate latency,10.4 ± 1.75 s
COC(=O)N1c2ccc3c(nc(Cc4ccccc4)n3[C@@H]3CCC[C@@H](C(=O)O)C3)c2CC[C@@H]1C,,"mice, breast cancer PDX","oral, 50 mg/kg, 45 days, ER+, TGI above 60%",,responding models,20%
COc1ccc(C2CC(c3ccc(C)cc3)=Nc3ccccc3S2)cc1OC (stereo not drawn),,"Wistar rat, STZ-induced diabetes","oral, 10 mg/kg once daily, day 21",,blood glucose,144 ± 4.34 mg/dL
CN(C)C(=O)c1cncc(N2Cc3cnn(Cc4ccc(F)cc4)c3C2)n1,EAE clinical score,mouse EAE model,"ip, 10 mg/kg daily from day 11, 264 h, unit not given",reference: vehicle,effect size d,-2.13
Cc1cc(O)c(C=O)c2c1C(=O)Oc1c(CO)c(O)c3c(c1O2)C(O)OC3=O (stereo not drawn),,"streptozotocin-induced diabetic male rats, plasma","10 mg/kg, 9 weeks",,fasting plasma glucose,141 ± 7.9 mg/dL
CCCCC1NC(=O)c2ccccc21 (racemic),,"rat cerebral ischaemia-reperfusion, cerebral cortex","50 mg/kg, 24 h after reperfusion",,NO synthase activity,0.72 U/mg
CC(=O)[O-].O.O.O.O.[Ni+2].[O-]c1ccc(Br)cc1C=NCCN1CCOCC1,FRAP,,240 µM,,ferric reducing power,58.5%
Cc1[nH]nc2c1N=C(c1ccccc1Cl)c1cnc(N3CCOCC3)cc1N2,immunohistochemistry,"HCC1806 xenograft, nude mice, tumour",dose not given,,CD34+ vascular cells,decreased
CSCC[C@H](NC(=O)[C@H](CC(C)C)NC(=O)CNC(=O)[C@H](Cc1ccccc1)NC(=O)[C@H](Cc1ccccc1)NC(=O)[C@H](CCC(N)=O)NC(=O)[C@H](CCC(N)=O)NC(=O)[C@@H]1CCCN1C(=O)[C@H](CCCCN)NC(=O)[C@@H]1CCCN1C(=O)[C@@H](N)CCCNC(=N)N)C(N)=O,,"diabetic mice, hindlimb ischemia","intravenous, 2.5 nmol/kg immediately and at day 6, 28 days",,limb loss,57.1%
CC(C)C[C@@H]1NC(=O)[C@H](CS)NC(=O)[C@H](CCCCN)NC(=O)[C@H](CC(=O)O)N(C(=O)[C@@H](N)Cc2c[nH]c3ccccc23)CCCNC(=O)NCCCCN([C@@H](C)C(N)=O)C1=O,,"DBA/1 mouse collagen-induced arthritis, synovium","intraperitoneal, dose not given",reference: PBS,osteoclast number,no effect
C=C(c1ccc(C(=O)O)c(F)c1)c1cc2c(cc1C)C(C)(C)C=CC2(C)C,"RNA sequencing, item: Nmb","rat, brain","dose not given, 24 h",reference: vehicle,log2 fold change,-1
CC[C@H](C)[C@H](NC(=O)[C@H](CCC(=O)O)NC(=O)[C@H](C)NC(=O)[C@@H](NC(=O)[C@H](Cc1c[nH]cn1)NC(=O)[C@@H](NC(=O)[C@H](CCC(=O)O)NC(=O)[C@H](C)NC(=O)[C@@H](NC(=O)[C@H](CC(C)C)NC(=O)[C@H](CCCCN)NC(=O)[C@H](Cc1c[nH]cn1)NC(=O)[C@H](CC(C)C)NC(=O)[C@H](Cc1ccccc1)NC(=O)[C@H](C)NC(=O)[C@H](CCCNC(=N)N)NC(=O)[C@H](CCCNC(=N)N)NC(=O)[C@H](CCCNC(=N)N)NC(=O)[C@H](C)NC(=O)[C@H](CC(=O)O)NC(=O)[C@H](CCC(N)=O)NC(=O)[C@@H](NC(=O)[C@H](Cc1c[nH]c2ccccc12)NC(=O)[C@H](CCCCN)NC(=O)[C@H](C)NC(=O)[C@H](CCCNC(=N)N)NC(=O)[C@H](CCC(N)=O)NC(=O)[C@H](Cc1c[nH]cn1)NC(=O)[C@H](CCSC)NC(=O)[C@H](CC(C)C)NC(=O)[C@H](CCC(N)=O)NC(=O)[C@@H](NC(=O)[C@H](CCC(=O)O)NC(=O)[C@H](C)NC(=O)[C@@H](NC(=O)[C@H](C)N)C(C)C)[C@@H](C)CC)[C@@H](C)CC)[C@@H](C)CC)[C@@H](C)CC)[C@@H](C)O)C(=O)O,,"cynomolgus monkey, serum","subcutaneous, 0.5 and 1.0 nmol/kg",,duration of raised serum calcium,≤ 72 h
O=C(Nc1ccc(C(F)(F)F)cc1Cl)c1cc(Cl)ccc1O,,"mice relapsed VCaP xenograft, serum",dose not given,,PSA level,decreased
C[C@H](NC(=O)COC(=O)[C@H](C)NC(=O)CO)C(=O)O,,water,"pH 8, 25 °C",,depolymerization rate constant,3.96 h⁻¹
CC=C1C(OC2OC(CO)C(O)C(O)C2O)OC=C(C(=O)OC)C1CC(=O)OCC1OC(OCCc2ccc(O)cc2)C(O)C(O)C1O (stereo not drawn),item: acetic acid,"tumour-bearing mice, faeces","oral, 109.2 mg/kg daily, 10 days",reference: untreated tumour group,faecal short-chain fatty acid increase,38.9%
CC(C)C[C@@H]1NC(=O)[C@H](C(C)C)NC(=O)[C@H](CC(N)=O)NC(=O)[C@H](CO)NC(=O)[C@H](CO)NC(=O)[C@H](CC(=O)O)NC(=O)[C@H](CC(=O)O)NC(=O)[C@H](Cc2ccccc2)NC(=O)[C@H](Cc2ccc(O)cc2)NC(=O)[C@@H](N)CSSC[C@@H](C(=O)N[C@@H](CCCCN)C(=O)N[C@@H](CCCCN)C(=O)N[C@@H](Cc2ccc(O)cc2)C(=O)N[C@@H](CCCNC(=N)N)C(=O)N[C@@H](CO)C(=O)O)NC1=O,,"CD-1 mouse, nephrotoxic serum nephritis, blood","dose not given, dosed from week 6",,blood urea nitrogen,decreased
CC[C@H]1[C@@H](O)[C@@H]2[C@H](CC[C@]3(C)[C@@H]([C@H](C)CCOS(=O)(=O)[O-])CC[C@@H]23)[C@@]2(C)CC[C@@H](O)C[C@@H]12.[Na+],,"ob/ob NASH mice, liver","oral, 3 mg/kg once daily, 8 wk",,liver triglycerides,229 ± 15.4 mg/g tissue
CCCCCCCCCCCCCCCC(=O)NCCCC[C@H](N)C(=O)N[C@@H](CC(=O)O)C(=O)N[C@H](C(=O)N[C@@H](Cc1c[nH]cn1)C(=O)N[C@@H](Cc1ccccc1)C(=O)N[C@@H](CCCNC(=N)N)C(=O)N[C@H](C(=O)N[C@@H](Cc1ccccc1)C(=O)N[C@@H](CCCNC(=N)N)C(=O)N[C@@H](CO)C(=O)N[C@@H](Cc1c[nH]cn1)C(=O)N[C@@H](CO)C(=O)N[C@@H](CC(=O)O)C(=O)N[C@@H](Cc1ccc(O)cc1)C(=O)N[C@@H](CCCNC(=N)N)C(=O)N[C@@H](CCCNC(=N)N)C(=O)N[C@H](C(=O)O)[C@@H](C)CC)[C@@H](C)O)[C@@H](C)O,,"C57BL/6J mouse, MCD diet","intraperitoneal, 1.2 nmol/g, 3 weeks, 3 times weekly",,serum AST,151 ± 20.8 IU/L
CC1(C)C(=CC=C2CCCC(C=CC3=[N+](CCCCS(=O)(=O)[O-])c4ccc(S(=O)(=O)O)cc4C3(C)C)=C2Oc2ccc(S(=O)(=O)O)cc2)N(CCCCCC(=O)NCCCC[C@H](NC(=O)[C@@H](CCC(=O)O)NC(=O)[C@@H](CCC(=O)O)NC(=O)[C@@H](CCC(=O)O)NC(=O)CCCCCNC(=O)C2CCC(CNC(=O)CC[C@H](NC(=O)N[C@@H](CCC(=O)O)C(=O)O)C(=O)O)CC2)C(N)=O)c2ccc(S(=O)(=O)O)cc21 (stereo partly drawn),fluorescence molecular tomography,"mouse, PC3pip tumour xenograft, PC3pip tumour","iv, 1 nmol, 4 h",,probe amount in tumour,71.2 ± 14.4 pmol
CC(=O)C1=C(C)NC(=O)NC1c1ccc(F)cc1F (stereo not drawn),DPPH radical scavenging,,,reference: gallic acid,antioxidant potency ratio,~2.9 fold and ~3 fold
NC[C@@H](C(=O)Nc1ccc(-c2cn[nH]c2)cc1)c1ccccc1,,"NZW rabbit, magnetic bead ocular hypertension","topical, 0.1 %, 30 h",reference: baseline,maximum IOP reduction,8 ± 1.6 mm Hg

# For quick reference, copied from above:
SMILES,assay,test system,setting,how to read,measurement,value
CCCCC1NC(=O)c2ccccc21 (racemic),,"rat cerebral ischaemia-reperfusion, cerebral cortex","50 mg/kg, 24 h after reperfusion",,NO synthase activity,0.72 U/mg
CCCCCCCCCCCCCCCC(=O)NCCCC[C@H](N)C(=O)N[C@@H](CC(=O)O)C(=O)N[C@H](C(=O)N[C@@H](Cc1c[nH]cn1)C(=O)N[C@@H](Cc1ccccc1)C(=O)N[C@@H](CCCNC(=N)N)C(=O)N[C@H](C(=O)N[C@@H](Cc1ccccc1)C(=O)N[C@@H](CCCNC(=N)N)C(=O)N[C@@H](CO)C(=O)N[C@@H](Cc1c[nH]cn1)C(=O)N[C@@H](CO)C(=O)N[C@@H](CC(=O)O)C(=O)N[C@@H](Cc1ccc(O)cc1)C(=O)N[C@@H](CCCNC(=N)N)C(=O)N[C@@H](CCCNC(=N)N)C(=O)N[C@H](C(=O)O)[C@@H](C)CC)[C@@H](C)O)[C@@H](C)O,,"C57BL/6J mouse, MCD diet","intraperitoneal, 1.2 nmol/g, 3 weeks, 3 times weekly",,serum AST,151 ± 20.8 IU/L
COc1ccc(OC)c(C(=Cc2ccc(O)c(OC)c2)C(=O)NCCc2ccc(O)cc2)c1,"item: DA, DOPAC, HVA","C57BL mice, MPTP/p Parkinson model, striatum","75 mg/kg, 8 weeks",reference: MPTP/p vehicle,dopamine and metabolite level,increased
